Published values gathered from unrelated publications.
Compare with care: the assays were run in different laboratories.

| Structure (SMILES) | test | test system | setting | quantity | result |
| --- | --- | --- | --- | --- | --- |
| C[C@]1(O)C[C@@](N)(c2ccc(-c3nc4n(c3-c3ccccc3)COc3ccncc3-4)cc2)C1 |  | human, advanced or metastatic solid tumours | intermittent, dose escalation total, any grade | patients with Anemia TEAE | 0% |
| CNC(=O)c1cc(Oc2ccc(NC(=O)Nc3cc(C(C)(C)C)nn3-c3ccc4ncccc4c3)c(F)c2)ccn1 |  | human, trial | oral, dose not given, all doses | patients with related serious Death AE | 2% |
| Cn1cncc1-c1c(F)cncc1NC(=O)c1c(N)nn2cc(F)cnc12 |  | human patients | oral, dose not given, all doses | patients grade ≥3 Hyperkalemia | 2% |
| C=CC(=O)Nc1cc(Nc2nccc(Nc3cc(Cl)c(F)cc3C(C)(C)O)n2)c(OC)cc1N1CC[C@@H](N(C)C)C1 |  | human patients | oral, 200 mg, treatment-emergent adverse events | patients with mouth ulceration | 12.5% |
| COc1ccc(-c2c(-c3ccc(C#N)c(F)c3)nc(N3CCC(N)CC3)n(C)c2=O)cc1F | measured: oxygen saturation decreased | human patients | oral, 60 mg, dose expansion | patients with serious TEAE | 5% |
| COc1ncnn2ccc(-c3cnc4nc(C)n(Cc5nnc([C@@H](C)F)o5)c4c3)c12 |  | human | oral, dose not given, grade 3 | patients with nail discoloration | 0% |
| Cc1cn([C@H]2O[C@@H](CO[P@@](=O)(N[C@@H](C)C(=O)OC(C)C)Oc3ccccc3)[C@H](O)[C@H]2F)c(=O)[nH]c1=O | measured: grade 1/2 | human | 10 mg | patients with creatine kinase elevation | 0% |
| CN(C)C(=O)c1cc2cnc(Nc3ccc(N4CCNCC4)cn3)nc2n1C1CCCC1 | measured: Renal toxicity, AESI | human, HR+/HER2− advanced breast cancer | oral, dose not given, grade 3, CTCAE v4.03 | patients with adverse event | 0.3% |
| O=C1Nc2cc3[nH]nc(-c4ccncc4)c3cc2CN1Cc1ccccc1 | CTCAE v4.03 | human, relapsed or refractory advanced solid tumours | intravenous, 3.6 mg/kg, pooled schedules | patients with rash | 0% |
| C[C@@H]1OC(=O)NN=C1c1ccc(-c2ccc(F)cc2)c(C(F)(F)F)c1 | phase I trial, measured: non-cardiac chest pain all grades | human patients | 20 mg loading then 1 mg daily | patients with adverse event | 0% |

Excerpt of the above:
| Structure (SMILES) | test | test system | setting | quantity | result |
| --- | --- | --- | --- | --- | --- |
| C[C@@H]1OC(=O)NN=C1c1ccc(-c2ccc(F)cc2)c(C(F)(F)F)c1 | phase I trial, measured: non-cardiac chest pain all grades | human patients | 20 mg loading then 1 mg daily | patients with adverse event | 0% |
| C=CC(=O)Nc1cc(Nc2nccc(Nc3cc(Cl)c(F)cc3C(C)(C)O)n2)c(OC)cc1N1CC[C@@H](N(C)C)C1 |  | human patients | oral, 200 mg, treatment-emergent adverse events | patients with mouth ulceration | 12.5% |
